{"data": "Results from different studies", "note": "Numbered parts are unrelated; each lists some results of a single study."}
{"data": "Study 1", "target": "Prothrombin, mature alpha-thrombin (F2, Homo sapiens, UniProt P00734)", "method": "aptamer microarray, sandwich", "form": "DNA with 2'F-ANA", "medium": "in vitro", "concentration": "200 nM", "setting": "whole 15-mer aptamer, many near background", "added": "Cy3 exosite-II aptamer, 400 nM", "direction": "higher = stronger binding", "sequence": "GGTTGGTGTGGTTGG"}
{"Modification": "2'F-ANA at 6 8 10 11 12 13 14 15", "mean fluorescence intensity": "91.9 a.u."}
{"Modification": "2'F-ANA at 2 6 7 10 11 14", "mean fluorescence intensity": "78.5 a.u."}
{"Modification": "2'F-ANA at 1 2 6 7 8 10 12 13", "mean fluorescence intensity": "71.3 a.u."}
{"Modification": "2'F-ANA at 1 2 4 5 6 12", "mean fluorescence intensity": "96.8 a.u."}
{"Modification": "2'F-ANA at 2 3 4 6 8 10 11 13 14 15", "mean fluorescence intensity": "123 a.u."}
{"Modification": "2'F-ANA at 3 6 7 8 9 10 11 12 13", "mean fluorescence intensity": "503 a.u."}
{"Modification": "2'F-ANA at 1 3 4 5 6 7 10 11 12 14 15", "mean fluorescence intensity": "54.5 a.u."}
{"Modification": "2'F-ANA at 4 6 7 9 10 11 12", "mean fluorescence intensity": "101 a.u."}
{"Modification": "2'F-ANA at 1 2 3 6 7 9 10 11 13", "mean fluorescence intensity": "59.6 a.u."}
{"Modification": "2'F-ANA at 1 2 3 6 10 11 12 14", "mean fluorescence intensity": "53.6 a.u."}
{"Modification": "2'F-ANA at 1 3 4 5 7 8 10", "mean fluorescence intensity": "47.4 a.u."}
{"Modification": "2'F-ANA at 1 2 3 4 5 7 9 11 13 15", "mean fluorescence intensity": "50.2 a.u."}
{"Modification": "2'F-ANA at 3 4 5 6 8 9 10 11 14", "mean fluorescence intensity": "47.1 a.u."}
{"Modification": "2'F-ANA at 2 4 5 8 11 14", "mean fluorescence intensity": "52 a.u."}
{"Modification": "2'F-ANA at 2 3 4 5 7 12", "mean fluorescence intensity": "218 a.u."}
{"Modification": "2'F-ANA at 3 5 7 9 10 12 13 14", "mean fluorescence intensity": "58.4 a.u."}
{"Modification": "2'F-ANA at 5 7 8 11 13 15", "mean fluorescence intensity": "92.6 a.u."}
{"Modification": "2'F-ANA at 6 7 9 10 11 12 14", "mean fluorescence intensity": "141 a.u."}
{"Modification": "2'F-ANA at 1 3 5 6 9 13 14", "mean fluorescence intensity": "45.5 a.u."}
{"Modification": "2'F-ANA at 1 6 7 8 11 13", "mean fluorescence intensity": "157 a.u."}
{"data": "Study 2", "target": "RING finger protein unkempt homolog, zinc fingers 1-6, SBP tag (UNK, Homo sapiens, UniProt Q9C0B0, residues 30-357)", "method": "RNA Bind-n-Seq", "form": "RNA", "medium": "in vitro", "concentration": "100 nM", "setting": "RNA with constant flanks, vertebrate orthologous sites, ends assumed", "baseline": "input RNA pool", "direction": "higher = stronger binding", "constant ends, left off below": "GGGAGUUCUACAGUCCGACGAUC … CAACAGAGGAUUGAGCAUCA", "sequence of UniProt Q9C0B0 (30-357, looked up)": "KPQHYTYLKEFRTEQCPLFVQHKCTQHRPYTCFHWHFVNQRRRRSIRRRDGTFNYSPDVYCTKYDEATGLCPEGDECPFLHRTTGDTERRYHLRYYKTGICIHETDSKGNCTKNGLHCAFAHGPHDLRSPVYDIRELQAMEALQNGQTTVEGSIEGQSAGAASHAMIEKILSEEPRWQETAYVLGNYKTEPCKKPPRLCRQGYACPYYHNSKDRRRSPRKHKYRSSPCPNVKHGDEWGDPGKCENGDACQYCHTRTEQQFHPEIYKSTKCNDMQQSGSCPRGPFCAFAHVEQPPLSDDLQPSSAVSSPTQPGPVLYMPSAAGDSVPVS"}
{"Sequence": "AUUCAUCUCUCACUUAAUGUCCAAAAUUACUGAGGGUUUGAAACAUUUAGUAGUUUCACAUAGAGCUACACUGGCAGGUGCUCUAAUACUAUCAUAGUGAGAUCAGAUACCAUUGUAGUA", "bound/input enrichment [ratio]": 0.719}
{"Sequence": "CAACGCCAUGGUGGAAGGCUCUGAGCUCAAAAAGGUCCGCUCCAACUCCAGGGUGUAUCACCGAUACUUCCUUUUGGAUGCUGAUAUGCAGUCUCUCCGCUGGGAGCCUUCGAAAAAGGA", "bound/input enrichment [ratio]": 0.198}
{"Sequence": "CCCCCUGACCCUAAAGUAGUAGAUCUUUUUAAAAUUAUGUCACCACCACUUGUAAAAAUUUAGCAAUACCAGAAGAAAACGCUAAUGAAGUAAGAAAUUUUGCUCAUUGUUUUGCAAACC", "bound/input enrichment [ratio]": 2.26}
{"Sequence": "CUUACCUGGUUAAUGUGUUUCUAUUUAUUGAGUCUAGUUUGUGCUAAACAUUGUGUUAAAUAGUGGAUUGACUCCACGUUGUUGUGUUGUUUUCAUUGUUGAAAAUAAAUAUAACUUUGU", "bound/input enrichment [ratio]": 0.367}
{"Sequence": "AUCUCUCAUUUUACAUGUCCAAAAAAAGUUUGGAAUUUUUAAACAAUUGCUAGUUUUAAUUAGCUCUGCCCUCAUGAAGUAUUAUAAUCACCAAAAACAGAUUAUCUGUCUGAAUUACUU", "bound/input enrichment [ratio]": 0.571}
{"Sequence": "CGUGCUUAUGCUCUUCUAUGAGAGAGAUGAAUUGGGGAGAACUGUCUCCAUUUUAUGGAUUAGUUUCUUUCUAAAUUAUGACCAAAAAUAUUUUGCUAUUUCUUUCUUUGUAUAUGGACA", "bound/input enrichment [ratio]": 0.362}
{"Sequence": "CUCUACGGGCCUCGCAGAGUUGAAAUAAUGGAAGAGGAAAAUGAACAGUAAUCUUCAUGUAGUAUUUAUGCUUAGGUGUGAAAUGCUAUUUGUUGAUCAUUUCUAUAAUCCAGAGCUUUA", "bound/input enrichment [ratio]": 0.308}
{"Sequence": "UUGGGACCAGCUCUCUGAAUAGAAAUAGUAGUAAAAAAACCAAGCAAAAUGAUAUUUGUAUAGACAAAACAGAAGUUAAAUCAUGUAAAAUAAAUGCUGCCAGUGUUCCAGGCCCUAAAG", "bound/input enrichment [ratio]": 2.16}
{"Sequence": "CCGAAAGGCCAAAUUCCCUCCUCCCUCCUACUGCUUCUACCAACUGGAAGCACAGAAAACUAGAAUUUCAUUUAUUUUUUUUUUUAAUGUUGAUUUCUUGUAACAUCCAAUAGGAAUGCU", "bound/input enrichment [ratio]": 2}
{"Sequence": "UCUCUCACCUAACUGUGCCCAAAAUUGCUAGGAGGGUUGGAAACGCUCAUUAGUUUCAUGUAGAACUACACUGGCAGGUGCUCAAUUACCGUCAUAGCAAGAUCAAAUACCAUCACAGUA", "bound/input enrichment [ratio]": 0.565}
{"Sequence": "GGCUCCCCUCUUAACCCUAUAUCUUCUGUUUCAUAGUGCAGAAAUAUUCAUUUGUAUUAUUAGUGGACUUGUUUAAUUUUAGAAAAACUUUGAGUACAGAUACUGUGAGCUUACAUGGAA", "bound/input enrichment [ratio]": 0.879}
{"data": "Study 3", "target": "Sal-like protein 4, full length isoform B (SALL4, Homo sapiens, UniProt Q9UJQ4-2, residues 1-616)", "method": "universal PBM", "form": "double-stranded DNA, one strand shown", "medium": "in vitro", "concentration": "not given", "setting": "8-mer, flanks averaged, mean of replicates", "direction": "higher = stronger binding"}
{"Sequence": "CATAGAAG", "E-score": 0.164}
{"Sequence": "TGGCCTAA", "E-score": 0.0424}
{"Sequence": "ATTTTAAA", "E-score": 0.335}
{"Sequence": "AATAAGCC", "E-score": 0.175}
{"Sequence": "AGGACGGC", "E-score": -0.221}
{"Sequence": "ACCTGGCA", "E-score": -0.0869}
{"Sequence": "CCAGGCAC", "E-score": -0.107}
{"Sequence": "AGCGAGTG", "E-score": -0.124}
{"Sequence": "CATCGGGC", "E-score": -0.292}
{"Sequence": "CGTCCCGC", "E-score": -0.303}
{"Sequence": "GTAGTCTA", "E-score": 0.136}
{"Sequence": "CCACTACG", "E-score": -0.215}
{"Sequence": "CACAGACC", "E-score": -0.323}
{"Sequence": "AAAAGCAA", "E-score": 0.186}
{"Sequence": "CACCACCA", "E-score": -0.225}
{"Sequence": "CAGTAACC", "E-score": -0.106}
{"Sequence": "TCATCAGA", "E-score": 0.0629}
{"Sequence": "GATCCACC", "E-score": -0.178}
{"Sequence": "GCCTTATA", "E-score": 0.133}
{"Sequence": "AGGGGCTA", "E-score": -0.131}
{"Sequence": "GAATTCAC", "E-score": -0.0591}
{"Sequence": "ACAATAGG", "E-score": 0.169}
{"data": "Study 4", "target": "PABPC1L2, full length, GST fusion (mouse, UniProt A0ABA7IW68)", "method": "RNAcompete", "form": "RNA", "medium": "in vitro", "concentration": "20 nM", "setting": "7-mer, probes averaged, single round", "baseline": "mean of 7-mers", "direction": "higher = stronger binding", "Construct (chain)": "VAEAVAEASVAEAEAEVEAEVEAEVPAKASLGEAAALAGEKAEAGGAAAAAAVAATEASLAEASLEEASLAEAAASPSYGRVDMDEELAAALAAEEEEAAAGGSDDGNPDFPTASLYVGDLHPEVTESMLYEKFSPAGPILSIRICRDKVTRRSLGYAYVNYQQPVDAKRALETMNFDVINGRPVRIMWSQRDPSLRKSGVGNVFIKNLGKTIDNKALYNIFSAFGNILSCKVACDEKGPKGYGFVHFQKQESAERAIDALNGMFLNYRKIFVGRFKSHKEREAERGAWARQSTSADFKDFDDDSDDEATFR"}
{"Sequence": "AUUGAAA", "7-mer Z-score": 0.441}
{"Sequence": "UAGUUUC", "7-mer Z-score": -0.396}
{"Sequence": "AUCGGCG", "7-mer Z-score": -0.0264}
{"Sequence": "AACCAGG", "7-mer Z-score": 0.144}
{"Sequence": "UAUUAAG", "7-mer Z-score": 0.017}
{"Sequence": "ACCCGGA", "7-mer Z-score": -0.0301}
{"Sequence": "AUUGCUA", "7-mer Z-score": -0.135}
{"Sequence": "GCGGGCA", "7-mer Z-score": 0.316}
{"Sequence": "CCGUACU", "7-mer Z-score": -0.454}
{"Sequence": "CCCAGCU", "7-mer Z-score": -0.168}
{"Sequence": "CGGGUGA", "7-mer Z-score": -0.021}
{"Sequence": "CAGUAUG", "7-mer Z-score": 0.0551}
{"Sequence": "UCUCUUC", "7-mer Z-score": -0.456}
{"Sequence": "UCAAUUA", "7-mer Z-score": -0.0246}
{"Sequence": "ACCUGCG", "7-mer Z-score": -0.113}
{"Sequence": "UCUCCGC", "7-mer Z-score": -0.465}
{"Sequence": "UACCAUG", "7-mer Z-score": -0.168}
{"Sequence": "AACUAUA", "7-mer Z-score": 0.285}
{"data": "Study 5", "target": "Histone acetyltransferase KAT6A, both winged helices, GST fusion (KAT6A, Homo sapiens, UniProt Q92794, residues 1-181)", "method": "protein binding microarray", "form": "double-stranded DNA, one strand shown", "medium": "in vitro", "concentration": "not given", "setting": "8-mer, flanks averaged, mean of 2 arrays, mostly near background", "baseline": "not given", "direction": "higher = stronger binding", "Residues (chain)": "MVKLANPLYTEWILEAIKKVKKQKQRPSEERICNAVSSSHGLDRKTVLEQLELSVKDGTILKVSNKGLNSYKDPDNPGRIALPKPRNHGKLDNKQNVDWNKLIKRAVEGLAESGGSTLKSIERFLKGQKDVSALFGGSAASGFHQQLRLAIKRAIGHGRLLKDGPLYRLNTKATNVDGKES"}
{"Sequence": "TGACGGCA", "E-score": 0.253}
{"Sequence": "GTAGCTTA", "E-score": -0.0765}
{"Sequence": "AAGGTTAA", "E-score": 0.0353}
{"Sequence": "CCATCTTA", "E-score": -0.0582}
{"Sequence": "GTGAAAGA", "E-score": -0.0449}
{"Sequence": "CAGGCAAG", "E-score": -0.129}
{"Sequence": "AAGAACCT", "E-score": -0.175}
{"Sequence": "GATGTTGC", "E-score": 0.0523}
{"Sequence": "AGTTTTAT", "E-score": -0.101}
{"Sequence": "TATCCTAA", "E-score": -0.142}
{"Sequence": "ACACGTGT", "E-score": -0.138}
{"Sequence": "ACTGTGTC", "E-score": -0.0359}
{"Sequence": "TATCACCA", "E-score": -0.0792}
{"Sequence": "AGGTCACG", "E-score": -0.00253}
{"Sequence": "ATGGAGCG", "E-score": 0.133}
{"Sequence": "TCTCTTAA", "E-score": -0.159}
{"Sequence": "GTACCTAA", "E-score": -0.114}
{"note": "For quick reference, copied from above (study 1):"}
{"Modification": "2'F-ANA at 2 6 7 10 11 14", "mean fluorescence intensity": "78.5 a.u."}
{"Modification": "2'F-ANA at 1 2 6 7 8 10 12 13", "mean fluorescence intensity": "71.3 a.u."}
{"Modification": "2'F-ANA at 1 2 4 5 6 12", "mean fluorescence intensity": "96.8 a.u."}
{"Modification": "2'F-ANA at 2 3 4 6 8 10 11 13 14 15", "mean fluorescence intensity": "123 a.u."}
{"Modification": "2'F-ANA at 3 6 7 8 9 10 11 12 13", "mean fluorescence intensity": "503 a.u."}
{"Modification": "2'F-ANA at 1 3 4 5 6 7 10 11 12 14 15", "mean fluorescence intensity": "54.5 a.u."}
{"Modification": "2'F-ANA at 4 6 7 9 10 11 12", "mean fluorescence intensity": "101 a.u."}
